# Experimental data collected from several papers.
# Each numbered part is a random draw from the data of one study; scales do not carry over between parts.
# UniProt Q15139, sequence (whole entry, looked up): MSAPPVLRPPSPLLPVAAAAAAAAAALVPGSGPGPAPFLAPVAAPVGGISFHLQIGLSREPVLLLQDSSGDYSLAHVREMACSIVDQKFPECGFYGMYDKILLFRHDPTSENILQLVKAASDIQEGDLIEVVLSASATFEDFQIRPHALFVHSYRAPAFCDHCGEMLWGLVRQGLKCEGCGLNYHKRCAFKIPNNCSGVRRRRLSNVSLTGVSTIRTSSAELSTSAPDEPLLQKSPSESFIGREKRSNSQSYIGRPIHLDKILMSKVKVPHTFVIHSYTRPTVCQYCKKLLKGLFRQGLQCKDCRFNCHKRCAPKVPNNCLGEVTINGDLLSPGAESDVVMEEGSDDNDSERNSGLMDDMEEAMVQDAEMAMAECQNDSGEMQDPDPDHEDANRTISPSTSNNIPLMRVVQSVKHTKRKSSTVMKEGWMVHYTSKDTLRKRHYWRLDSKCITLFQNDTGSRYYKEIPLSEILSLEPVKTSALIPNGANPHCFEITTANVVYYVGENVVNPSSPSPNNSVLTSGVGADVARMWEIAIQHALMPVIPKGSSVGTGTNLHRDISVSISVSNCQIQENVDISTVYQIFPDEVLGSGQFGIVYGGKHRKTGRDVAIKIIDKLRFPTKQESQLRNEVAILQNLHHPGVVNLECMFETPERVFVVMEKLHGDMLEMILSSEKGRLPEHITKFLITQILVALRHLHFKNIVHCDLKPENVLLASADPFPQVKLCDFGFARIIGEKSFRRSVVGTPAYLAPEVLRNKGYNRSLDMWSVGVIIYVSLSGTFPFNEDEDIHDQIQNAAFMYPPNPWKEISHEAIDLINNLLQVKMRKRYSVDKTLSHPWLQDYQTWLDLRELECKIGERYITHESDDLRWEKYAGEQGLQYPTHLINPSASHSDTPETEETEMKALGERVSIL
# UniProt Q16816, sequence (whole entry, looked up): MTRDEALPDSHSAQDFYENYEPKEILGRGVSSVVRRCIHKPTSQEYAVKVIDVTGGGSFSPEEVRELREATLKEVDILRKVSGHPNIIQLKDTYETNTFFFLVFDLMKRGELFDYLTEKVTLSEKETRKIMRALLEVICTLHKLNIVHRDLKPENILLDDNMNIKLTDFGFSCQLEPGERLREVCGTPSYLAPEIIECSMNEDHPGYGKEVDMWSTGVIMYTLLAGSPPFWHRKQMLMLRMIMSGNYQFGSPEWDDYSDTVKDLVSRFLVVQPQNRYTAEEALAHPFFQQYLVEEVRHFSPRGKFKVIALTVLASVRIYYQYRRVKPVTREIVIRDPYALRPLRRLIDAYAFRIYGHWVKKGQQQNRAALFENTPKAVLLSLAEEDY
# UniProt P51956, sequence (whole entry, looked up): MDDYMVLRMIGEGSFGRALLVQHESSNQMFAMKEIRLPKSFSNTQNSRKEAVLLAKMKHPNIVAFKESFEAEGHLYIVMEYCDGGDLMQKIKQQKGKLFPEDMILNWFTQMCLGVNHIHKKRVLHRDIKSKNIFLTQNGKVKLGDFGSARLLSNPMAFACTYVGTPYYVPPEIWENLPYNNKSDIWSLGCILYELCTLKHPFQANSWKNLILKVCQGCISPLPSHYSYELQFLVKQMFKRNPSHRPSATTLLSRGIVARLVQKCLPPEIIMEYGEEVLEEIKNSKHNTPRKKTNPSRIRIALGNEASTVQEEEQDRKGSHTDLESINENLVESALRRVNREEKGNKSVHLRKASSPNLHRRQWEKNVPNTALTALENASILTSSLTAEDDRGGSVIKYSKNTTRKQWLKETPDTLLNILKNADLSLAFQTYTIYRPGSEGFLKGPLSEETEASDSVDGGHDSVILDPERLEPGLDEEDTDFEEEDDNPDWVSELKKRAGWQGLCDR
# UniProt Q8TD19, sequence (whole entry, looked up): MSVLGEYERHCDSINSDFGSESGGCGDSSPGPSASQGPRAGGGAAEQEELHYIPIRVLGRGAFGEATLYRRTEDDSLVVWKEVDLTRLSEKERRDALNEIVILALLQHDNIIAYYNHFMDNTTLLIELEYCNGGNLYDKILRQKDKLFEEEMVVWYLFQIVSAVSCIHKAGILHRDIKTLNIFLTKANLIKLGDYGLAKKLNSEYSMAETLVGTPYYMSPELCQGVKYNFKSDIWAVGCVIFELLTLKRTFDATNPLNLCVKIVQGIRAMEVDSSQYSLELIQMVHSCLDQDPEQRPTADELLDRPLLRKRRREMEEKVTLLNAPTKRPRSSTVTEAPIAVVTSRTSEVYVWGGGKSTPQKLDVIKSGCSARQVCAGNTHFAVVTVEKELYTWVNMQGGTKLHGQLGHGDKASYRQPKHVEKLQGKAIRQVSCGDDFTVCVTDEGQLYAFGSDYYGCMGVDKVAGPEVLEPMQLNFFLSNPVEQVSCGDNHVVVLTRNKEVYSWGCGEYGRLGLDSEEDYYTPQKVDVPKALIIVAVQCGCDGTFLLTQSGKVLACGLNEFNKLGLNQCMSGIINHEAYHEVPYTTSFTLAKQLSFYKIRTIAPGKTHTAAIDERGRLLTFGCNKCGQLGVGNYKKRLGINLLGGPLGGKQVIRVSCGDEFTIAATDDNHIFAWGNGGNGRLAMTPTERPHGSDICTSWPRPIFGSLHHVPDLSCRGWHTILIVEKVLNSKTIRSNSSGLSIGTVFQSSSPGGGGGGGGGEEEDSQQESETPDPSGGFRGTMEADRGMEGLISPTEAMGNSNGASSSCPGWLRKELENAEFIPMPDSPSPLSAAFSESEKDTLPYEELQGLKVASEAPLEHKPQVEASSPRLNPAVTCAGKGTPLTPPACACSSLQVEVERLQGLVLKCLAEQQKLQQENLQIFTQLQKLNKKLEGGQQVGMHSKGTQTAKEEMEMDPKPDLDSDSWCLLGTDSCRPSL
# UniProt P48146, sequence (whole entry, looked up): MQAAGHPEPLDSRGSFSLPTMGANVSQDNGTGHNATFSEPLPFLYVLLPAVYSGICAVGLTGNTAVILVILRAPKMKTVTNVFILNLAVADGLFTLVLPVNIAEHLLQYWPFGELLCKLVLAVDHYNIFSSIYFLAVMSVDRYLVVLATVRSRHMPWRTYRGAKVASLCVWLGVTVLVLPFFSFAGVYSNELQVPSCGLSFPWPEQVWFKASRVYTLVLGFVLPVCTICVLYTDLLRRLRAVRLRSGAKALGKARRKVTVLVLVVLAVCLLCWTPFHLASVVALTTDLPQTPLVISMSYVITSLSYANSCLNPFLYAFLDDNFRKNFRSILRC
# UniProt O43194, sequence (whole entry, looked up): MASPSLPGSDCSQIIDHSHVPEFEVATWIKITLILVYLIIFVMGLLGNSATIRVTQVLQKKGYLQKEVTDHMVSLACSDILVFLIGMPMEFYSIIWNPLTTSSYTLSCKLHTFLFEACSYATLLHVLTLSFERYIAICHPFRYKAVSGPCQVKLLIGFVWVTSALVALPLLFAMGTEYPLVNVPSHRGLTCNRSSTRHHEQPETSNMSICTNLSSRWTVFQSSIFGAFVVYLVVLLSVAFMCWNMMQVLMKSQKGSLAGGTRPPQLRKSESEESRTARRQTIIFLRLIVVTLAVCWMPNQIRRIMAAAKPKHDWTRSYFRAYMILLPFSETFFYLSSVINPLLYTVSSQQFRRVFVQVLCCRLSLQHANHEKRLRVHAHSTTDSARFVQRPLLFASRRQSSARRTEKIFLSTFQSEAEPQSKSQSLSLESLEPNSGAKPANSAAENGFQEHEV
# UniProt P19784, sequence (whole entry, looked up): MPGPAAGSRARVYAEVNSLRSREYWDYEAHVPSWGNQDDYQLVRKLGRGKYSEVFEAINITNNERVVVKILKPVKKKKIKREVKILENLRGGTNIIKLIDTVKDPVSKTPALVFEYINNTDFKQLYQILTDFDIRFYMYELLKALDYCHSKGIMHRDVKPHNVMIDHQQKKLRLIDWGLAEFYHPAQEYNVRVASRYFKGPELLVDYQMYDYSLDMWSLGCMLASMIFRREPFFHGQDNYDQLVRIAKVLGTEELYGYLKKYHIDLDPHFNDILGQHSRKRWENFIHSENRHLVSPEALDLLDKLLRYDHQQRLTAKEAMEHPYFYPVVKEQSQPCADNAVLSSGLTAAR
# UniProt P53779, sequence (whole entry, looked up): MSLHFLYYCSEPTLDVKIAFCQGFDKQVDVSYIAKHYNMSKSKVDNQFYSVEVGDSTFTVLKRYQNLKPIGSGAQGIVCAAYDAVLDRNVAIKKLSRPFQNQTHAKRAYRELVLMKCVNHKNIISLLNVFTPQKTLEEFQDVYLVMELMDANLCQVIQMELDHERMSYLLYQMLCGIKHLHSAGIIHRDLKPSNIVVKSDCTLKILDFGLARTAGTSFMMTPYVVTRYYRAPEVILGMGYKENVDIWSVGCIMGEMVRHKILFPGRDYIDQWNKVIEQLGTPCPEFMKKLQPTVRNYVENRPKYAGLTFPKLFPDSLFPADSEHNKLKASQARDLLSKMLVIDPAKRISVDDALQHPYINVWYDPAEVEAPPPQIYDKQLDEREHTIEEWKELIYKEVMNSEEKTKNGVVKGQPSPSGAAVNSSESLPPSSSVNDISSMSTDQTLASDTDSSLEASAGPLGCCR

# Set 1
# Target: Calcium/calmodulin-dependent protein kinase type II subunit alpha (CAMK2A, Homo sapiens, UniProt Q9UQM7)
# UniProt Q9UQM7, sequence (whole entry, looked up): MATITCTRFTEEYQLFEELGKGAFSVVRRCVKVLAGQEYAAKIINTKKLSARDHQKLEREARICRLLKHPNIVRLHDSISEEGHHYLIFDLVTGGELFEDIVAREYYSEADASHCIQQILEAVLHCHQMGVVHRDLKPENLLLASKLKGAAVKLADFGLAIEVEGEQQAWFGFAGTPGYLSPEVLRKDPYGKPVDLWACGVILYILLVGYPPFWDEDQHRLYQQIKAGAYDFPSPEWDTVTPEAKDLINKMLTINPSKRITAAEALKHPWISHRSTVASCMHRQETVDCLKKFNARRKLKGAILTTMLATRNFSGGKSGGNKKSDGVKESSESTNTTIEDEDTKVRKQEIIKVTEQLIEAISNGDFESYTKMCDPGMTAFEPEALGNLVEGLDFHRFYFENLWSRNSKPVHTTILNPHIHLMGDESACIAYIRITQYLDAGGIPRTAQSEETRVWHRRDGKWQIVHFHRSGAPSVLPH
# Effect on: enzyme activity
# Action: inhibitor
# Tested at: 10 µM
SMILES,inhibition [%]
NC[C@H]1CC[C@H](C(=O)O)CC1,-6
NC1(C(=O)O)CC1,14
Cc1c(Cl)cccc1Nc1ccccc1C(=O)O,-3
CN1C(=O)CC[C@H]1c1cccnc1,21
Cc1ccc2c(c1)c1c(n2CCc2ccc(C)nc2)CCN(C)C1,3
Cc1cccc(Nc2ccncc2S(=O)(=O)NC(=O)NC(C)C)c1,-3
CC(=O)N[C@@H](CCCN=C(N)N)C(=O)O,-4
O=C1O[C@H](CO)[C@@H](O)[C@H](O)[C@H]1O,-34
CC1=C(C)C(=O)C(C(CCCCCC(=O)O)c2ccccc2)=C(C)C1=O (stereo not shown),-12
CCCC[C@H](N)C(=O)O,20
O=C(O)c1ccoc1,-5
CCOC(=O)c1ccc(C#Cc2ccc3c(c2)C(C)(C)CCS3)nc1,-10

# Set 2
# SMILES: N=C(N)NC(=O)c1cnn(-c2cccc3ncccc23)c1C1CC1
# Effect on: β-arrestin recruitment
# Action: agonist
# Technique: PRESTO-Tango
# Tested at: 10 µM
# Reference: untreated
target,fold over basal
"G-prodeshotein coupled receptor 4 (GPR4, Homo sapiens, UniProt P46093)",1.82
"Melanocortin receptor 4 (MC4R, Homo sapiens, UniProt P32245)",1
"ADGRG2 (Homo sapiens, UniProt Q8IZP9)",1.17
"Trace amine-associated receptor 2 (TAAR2, Homo sapiens, UniProt Q9P1P5)",1.11 fold
"Prostaglandin D2 receptor 2 (PTGDR2, Homo sapiens, UniProt Q9Y5Y4)",0.99
"Orexin receptor type 2 (HCRTR2, Homo sapiens, UniProt O43614)",0.8 fold
"G-protein coupled receptor 39 (GPR39, Homo sapiens, UniProt O43194)",1.07
"NPBWR2 (Homo sapiens, UniProt P48146)",1.13
"Free fatty acid receptor 4 (FFAR4, Homo sapiens, UniProt Q5NUL3)",0.77
"Somatostatin receptor type 5 (SSTR5, Homo sapiens, UniProt P35346)",1.63 fold
"Probable G-protein coupled receptor 45 (GPR45, Homo sapiens, UniProt Q9Y5Y3)",1.2
"Mas-related G-protein coupled receptor member X3 (Homo sapiens, UniProt Q96LB0)",1.97
"Mas-related G-protein coupled receptor MRG (MAS1L, Homo sapiens, UniProt P35410)",1
"Thyrotropin receptor (TSHR, Homo sapiens, UniProt P16473)",1.62 fold
"Mas-related G-protein coupled receptor member F (MRGPRF, Homo sapiens, UniProt Q96AM1)",0.94

# Set 3
# SMILES: Oc1ccc(Nc2nc(-c3ccc(Cl)cc3)cs2)cc1
# Effect on: enzyme activity
# Action: inhibitor
# Tested at: 0.5 µM
# Reference: control
target,remaining activity [%]
"Casein kinase II subunit alpha' (CSNK2A2, Homo sapiens, UniProt P19784)",96.9
"Cyclin-dependent kinase 2, with cyclin A (CDK2, Homo sapiens, UniProt P24941)",98.6
"Serine/threonine-protein kinase N2 (PKN2, Homo sapiens, UniProt Q16513)",93.8
"Aurora kinase A (AURKA, Homo sapiens, UniProt O14965)",89.4
"Cyclin-dependent kinase 7 (CDK7, Homo sapiens, UniProt P50613)",96.3
"NT-3 growth factor receptor (NTRK3, Homo sapiens, UniProt Q16288)",102
"G protein-coupled receptor kinase 5 (GRK5, Homo sapiens, UniProt P34947)",92
"Epidermal growth factor receptor (EGFR, Homo sapiens, UniProt P00533)",95.3
"STE20-like serine/threonine-protein kinase (SLK, Homo sapiens, UniProt Q9H2G2)",110
"Mitogen-activated protein kinase kinase kinase 8 (MAP3K8, Homo sapiens, UniProt P41279)",94.9
"Homeodomain-interacting protein kinase 3 (HIPK3, Homo sapiens, UniProt Q9H422)",109
"Calcium/calmodulin-dependent protein kinase type 1D (CAMK1D, Homo sapiens, UniProt Q8IU85)",103
"Mitogen-activated protein kinase kinase kinase 2 (MAP3K2, Homo sapiens, UniProt Q9Y2U5)",92.1
"Protein-tyrosine kinase 2-beta (PTK2B, Homo sapiens, UniProt Q14289)",100
"Proto-oncogene tyrosine-protein kinase receptor Ret (RET, Homo sapiens, UniProt P07949)",99
"Rho-associated protein kinase 2 (ROCK2, Homo sapiens, UniProt O75116)",99.4
"Dual specificity tyrosine-phosphorylation-regulated kinase 4 (DYRK4, Homo sapiens, UniProt Q9NR20)",95.9
"Calcium/calmodulin-dependent protein kinase type 1G (CAMK1G, Homo sapiens, UniProt Q96NX5)",106
"Serine/threonine-protein kinase BRSK1 (BRSK1, Homo sapiens, UniProt Q8TDC3)",102
"Mitogen-activated protein kinase 10 (MAPK10, Homo sapiens, UniProt P53779)",101
"Serine/threonine-protein kinase D1 (PRKD1, Homo sapiens, UniProt Q15139)",96.8
"Serine/threonine-protein kinase Nek9 (NEK9, Homo sapiens, UniProt Q8TD19)",90.6
"Proto-oncogene tyrosine-protein kinase ROS (ROS1, Homo sapiens, UniProt P08922)",96.9
"Myotonin-protein kinase (DMPK, Homo sapiens, UniProt Q09013)",102

# Set 4
# Structure (SMILES): O=C(NCCCC1CCCCC1)c1ccc(CNC(=O)c2cnn(-c3ccccc3)c2C(F)(F)F)cc1
# Tested at: 0.1 µM
target,test,remaining binding [%]
"SNF-related serine/threonine-protein kinase (SNRK, Homo sapiens, UniProt Q9NRH2)","cell-free assay, competition with immobilised ligand",100
"Phosphatidylinositol 4-kinase beta (PI4KB, Homo sapiens, UniProt Q9UBF8)","cell-free assay, competition with immobilised ligand",77
"Serine/threonine-protein kinase Nek3 (NEK3, Homo sapiens, UniProt P51956)","cell-free assay, competition with immobilised ligand",100
"Cyclin-dependent kinase 19 (CDK19, Homo sapiens, UniProt Q9BWU1)",competition binding,96
"Non-receptor tyrosine-protein kinase TNK1 (TNK1, Homo sapiens, UniProt Q13470)","cell-free assay, competition with immobilised ligand",88
"Cyclin-dependent kinase 9 (CDK9, Homo sapiens, UniProt P50750)","cell-free assay, competition with immobilised ligand",100
"Epidermal growth factor receptor (EGFR, Homo sapiens, UniProt P00533, del746-750)","cell-free assay, competition with immobilised ligand",100
"Phosphatidylinositol 4,5-bisphosphate 3-kinase catalytic subunit alpha isoform (PIK3CA, Homo sapiens, UniProt P42336)","cell-free assay, competition with immobilised ligand",100
"Serine/threonine-protein kinase WNK1 (WNK1, Homo sapiens, UniProt Q9H4A3)","cell-free assay, competition with immobilised ligand",100
"Ribosomal protein S6 kinase alpha-5, N-terminal kinase domain (RPS6KA5, Homo sapiens, UniProt O75582)","cell-free assay, competition with immobilised ligand",100
"Ephrin type-B receptor 2 (EPHB2, Homo sapiens, UniProt P29323)","cell-free assay, competition with immobilised ligand",100
"Mitogen-activated protein kinase kinase kinase 20 (MAP3K20, Homo sapiens, UniProt Q9NYL2)","cell-free assay, competition with immobilised ligand",100
"Serine/threonine-protein kinase D1 (PRKD1, Homo sapiens, UniProt Q15139)","cell-free assay, competition with immobilised ligand",100
"Serine/threonine-protein kinase PLK1 (PLK1, Homo sapiens, UniProt P53350)","cell-free assay, competition with immobilised ligand",93
"BMP-2-inducible protein kinase (BMP2K, Homo sapiens, UniProt Q9NSY1)","cell-free assay, competition with immobilised ligand",100
"Serine/threonine-protein kinase MRCK gamma (CDC42BPG, Homo sapiens, UniProt Q6DT37)",competition binding,99
"Mitogen-activated protein kinase kinase kinase 10 (MAP3K10, Homo sapiens, UniProt Q02779)","cell-free assay, competition with immobilised ligand",87
"Phosphorylase b kinase gamma catalytic chain, skeletal muscle/heart isoform (PHKG1, Homo sapiens, UniProt Q16816)","cell-free assay, competition with immobilised ligand",100
"Protein kinase C epsilon type (PRKCE, Homo sapiens, UniProt Q02156)","cell-free assay, competition with immobilised ligand",88

# For quick reference, copied from above (set 2):
target,fold over basal
"ADGRG2 (Homo sapiens, UniProt Q8IZP9)",1.17
"Trace amine-associated receptor 2 (TAAR2, Homo sapiens, UniProt Q9P1P5)",1.11 fold
"Prostaglandin D2 receptor 2 (PTGDR2, Homo sapiens, UniProt Q9Y5Y4)",0.99
"Orexin receptor type 2 (HCRTR2, Homo sapiens, UniProt O43614)",0.8 fold
"G-protein coupled receptor 39 (GPR39, Homo sapiens, UniProt O43194)",1.07
